Assay results from different studies.
Every numbered part comes from another study and shows a few of its results, in no order.

Set 1
Target: Histone acetyltransferase KAT6A, both winged helices, GST fusion (KAT6A, Homo sapiens, UniProt Q92794, residues 1-181)
Method: protein binding microarray
Molecule type: double-stranded DNA, one strand shown
Sample: in vitro
Tested at: not given
Setting: 8-mer, flanks averaged, mean of 2 arrays, mostly near background
Reference: not given
Reading: higher = stronger binding
Residues (chain): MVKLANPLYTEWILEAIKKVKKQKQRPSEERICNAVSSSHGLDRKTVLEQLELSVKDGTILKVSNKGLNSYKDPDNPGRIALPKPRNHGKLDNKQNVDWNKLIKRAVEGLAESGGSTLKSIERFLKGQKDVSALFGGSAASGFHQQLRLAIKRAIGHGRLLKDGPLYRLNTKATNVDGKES
Strand | E-score
AATATAGG | 0.00916
CACACATC | -0.187
GAAGAAAC | -0.0239
AATCATGC | 0.054
CACGATTC | 0.0656
CACAGCCG | 0.246
ACGCCGCT | 0.303
AGGTTTAT | 0.0732
GGGAGTCA | -0.165
ACCTCGAG | 0.02
ATCAGAGG | -0.0657
ATGATCAG | -0.159
GGTATACA | -0.0445
GCGTGGTA | 0.14
ACTCCTCC | -0.18
TACAAGCA | -0.0566
ACGTTGAA | 0.00246
GTAGTTCA | -0.114
ACGGGGAA | 0.205
CGCCGAAG | 0.225
CCCGTCGC | 0.291
ACTTTATA | -0.0185
GCAATTAA | 0.081
CGCAAATA | 0.0316
CCGCAAGC | 0.137

Set 2
Target: RNA binding protein fox-1 homolog 2, RRM domain, GST-SBP tag (RBFOX2, Homo sapiens, UniProt O43251-10, residues 100-194)
Method: RNA Bind-n-Seq
Molecule type: RNA
Sample: in vitro
Tested at: 365 nM
Setting: natural RNA segment, single round, ends assumed
Reference: no-protein control
Reading: higher = stronger binding
Constant ends, left off below: GGGAGUUCUACAGUCCGACGAUC … UGGAAUUCUCGGGUGCCAA
Construct (chain): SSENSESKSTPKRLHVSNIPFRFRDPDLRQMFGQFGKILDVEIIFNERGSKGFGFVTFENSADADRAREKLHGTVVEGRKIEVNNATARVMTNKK
Strand | RBNS enrichment (R)
AUGCCUGCUGCCUGCCUCUCUCCUAACAUGGUUCCAUCAAGUAGACACCCUUUGUAUUUGACCUCUUCCCAGUUCCUGCCCUGUUUCUGUAUCUUUACUUGAAAGUUGGG | 2.71
GCUGACUGGAUCCACUCAUCAAUUCUUCGUCCCCACUACUAAGACUGGGCAUGUUUUGCUGGUGUGGUCUCUGCACUUCAGGAAUGGUCACAACAGGGGGUAGCCCUCAA | 1.97
UCUUGUAAAACUUGUAAAUAAACUAUCAUCUUUGUAGAUAUCUUAAAGGUGUAAAGUUUGCAAAUUUGAAGAAAUAUAUAUUAACACUGUGGUCAGGUACAUUCCUUAAA | 0.446
CCAAUUAUGAGAUAAAAUUUAUACUUUUUACUUUUCUAAAUUAAACACAAGAAAGAAUGCAAAAACAAAAGUGAUUUUUUAAAAAUGAGGUUAAAUCGAUUUUGCAUCAG | 4.61
GGGGAAGCGAAUGUUUCUGAACAUAAGGCUCUAAGACUCGUGUGAGGCUGAGAGUGAAUGGCAGUGGAGAGUGGGCUGAGAGAGGGCAGCUGGCACAUCCAGGGUCAUGG | 1.13
CCCAGGCUGGAGUGCAGUGGCGUAGUCUCGGCUCACUGCAAGCUCCGCCUCCCGGGUUCACGCCGUUCUCCUGCCUCAGCCUCUCUGAGAAGCUGGGACUACAGGCGCCC | 0.136
AGUAAAAAUGAUGGUAAUUAAAAAAAAUCCUCAGUAUCCCUAGCUUGUCUAUUAACUGUGAUAAUCUGACUUGAGUCAGAUUGAAUAUUUGGAGUGCUUCCCCAGAAUAA | 0.495
UUCCUCUUCAAGAAAAAAAAAGCAGAGUUUUUUUGCUUUUCAACUCUAUUUUGUUCUUAAAUAAGCAAGAAAAUUGCACGUUGUAUUCACUGACGACAACAAAAGCUUAG | 0.992

Set 3
Target: RING finger protein unkempt homolog, zinc fingers 1-6, GST-SBP tag (UNK, Homo sapiens, UniProt Q9C0B0, residues 30-357)
UniProt Q9C0B0, sequence (30-357, looked up): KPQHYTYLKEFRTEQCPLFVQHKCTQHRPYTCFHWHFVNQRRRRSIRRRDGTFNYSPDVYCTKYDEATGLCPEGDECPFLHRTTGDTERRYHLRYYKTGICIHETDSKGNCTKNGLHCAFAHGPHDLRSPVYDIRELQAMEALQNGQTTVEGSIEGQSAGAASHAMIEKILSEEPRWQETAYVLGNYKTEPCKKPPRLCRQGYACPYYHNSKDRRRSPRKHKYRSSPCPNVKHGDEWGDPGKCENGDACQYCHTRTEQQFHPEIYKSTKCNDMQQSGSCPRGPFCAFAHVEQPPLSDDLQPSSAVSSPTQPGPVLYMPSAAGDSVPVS
Method: RNA Bind-n-Seq
Molecule type: RNA
Sample: in vitro
Tested at: not given
Setting: RNA with constant flanks, human-mouse chimeric sites, ends assumed
Reference: input RNA pool
Reading: higher = stronger binding
Constant ends, left off below: GGGAGUUCUACAGUCCGACGAUC … CAACAGAGGAUUGAGCAUCA
Strand | bound/input enrichment
UUGUGCAAUGAUGCUUGAGAUGGUUUUUGCAAAAGCAGAAAUCGCUGCAAGGUAAUCACAAUAGAUAAAAGUGGUAUUUUAAACCUUUGAAAUAAAUGGAUGUAACUGUACGUUGGUACA | 0.923 ratio
GGUGGGGUGGUCAUUGCCGUUUGAGCUGCUGAUUUUCUUAUGAAUCAUUCAAAACUCUCGUGUAGGGUUGACAAUGUAAGGGGUGGGGGGAUCCAGCUUAUUCUUUUAUUUUCAAGUCCA | 0.535 ratio
CUGUGACCACAAGAUCCUGAAGUUUGAGCAGCUGAAGUUGACUCCCUCUCCUUGCCUGAACCCCCCCCCACUGCCCCCCCAUCCCCCAGUGUCGGCUAUUCUCUGGUCUCUGCACGGUUC | 0.962 ratio
AUGGAAAAGGAUUCUCUGCCCCGCUUUGUGCGCUCUGAAUUUUAUAAGGAGUUAAUCAAGUAGUCAUCUGGUCAGGCUUCCAAAAGUUGCCCUGUGAGUUGAGUUACAUCCUUUGUAGCA | 0.198 ratio
GGCUGCUGGUGACUGUCCUGGAGUGGCUGGAGUUCCCGCCGGAGCGCGCGCAGGUUAAUUUUAGAAAAUGCCAAGUAGGAAGUUUGUCGAUGGUGAAGUGGUCAGAGGCCGAUGGCCUGG | 2.84 ratio
UCGGAUGCUGUGCUGGGUCACUUUUCAUAUCCAGAUCCUUCACAGUGGACAGAUGAAGAAUUAGGUAUCCCUCCUGAUGACGAGGACUGACACUGUAAACUCUCUGGACGAGUAGGAGCA | 0.756 ratio
CAGCUGCAGACAGAGAAGGAUGAGAAGGAGCUGUAUAAGGUACAUUUGAAGAAUACAGAAAUAGAAAAUACGAAGCUUGUGUCAGAGAUACAGACUUUAAAAAAUUUAGAUGGAAACAAA | 4.11 ratio
CGGAGCCCUCCUCUCCCACAGGCCCAAGAUAUAACCCACCAGUGCCUUUUGUCUUCCCGUUAGCUUUAAUCAAUCAUCCUGUCCUCUCACGCCCACACCAAGUGCCCAAAGUGGGGAGGG | 45.5 ratio

Set 4
Target: PABPC1L2, full length, GST fusion (mouse, UniProt A0ABA7IW68)
Method: RNAcompete
Molecule type: RNA
Sample: in vitro
Tested at: 20 nM
Setting: 7-mer, probes averaged, single round
Reference: mean of 7-mers
Reading: higher = stronger binding
Target sequence (chain): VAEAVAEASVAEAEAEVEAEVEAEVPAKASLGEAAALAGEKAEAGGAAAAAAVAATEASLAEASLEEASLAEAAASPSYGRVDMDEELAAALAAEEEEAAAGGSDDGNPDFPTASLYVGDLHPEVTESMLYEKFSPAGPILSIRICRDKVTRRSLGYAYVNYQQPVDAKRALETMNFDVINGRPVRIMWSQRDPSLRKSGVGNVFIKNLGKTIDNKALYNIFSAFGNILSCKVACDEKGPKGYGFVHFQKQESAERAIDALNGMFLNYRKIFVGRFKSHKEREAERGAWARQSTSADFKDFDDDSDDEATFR
Strand | 7-mer Z-score
CGGUCAC | -0.171
AAGACUU | 0.115
UCAUAUG | -0.153
CUCAUCG | -0.315
GAUGUGA | -0.11
UGUUCAA | -0.208
GCCAUCA | -0.0772
AAUGGCU | 0.193
CUCGCUU | -0.478
GUGGUCC | -0.0754
GGUCCUG | -0.217
CCGUUGU | -0.481
CUCACGA | -0.104
AGCCCCG | -0.316
CUCCUUC | -0.429
CUUUUGG | -0.05
GCUCUGC | -0.295
CUGUCUG | -0.267
UACCGGC | -0.244
GUACCAC | -0.0881
GCUUUUG | -0.237

A few entries again (set 1):
Strand | E-score
CACACATC | -0.187
CACAGCCG | 0.246
ACGTTGAA | 0.00246
GGGAGTCA | -0.165
CCCGTCGC | 0.291
GGTATACA | -0.0445
AATATAGG | 0.00916
ACTTTATA | -0.0185
